# Assay results collected from several papers.
# Compare with care: the assays were run in different laboratories.
# CDK2: Cyclin-dependent kinase 2 (CDK2, Homo sapiens, UniProt P24941)
# Chain of UniProt O75582 (whole entry, looked up): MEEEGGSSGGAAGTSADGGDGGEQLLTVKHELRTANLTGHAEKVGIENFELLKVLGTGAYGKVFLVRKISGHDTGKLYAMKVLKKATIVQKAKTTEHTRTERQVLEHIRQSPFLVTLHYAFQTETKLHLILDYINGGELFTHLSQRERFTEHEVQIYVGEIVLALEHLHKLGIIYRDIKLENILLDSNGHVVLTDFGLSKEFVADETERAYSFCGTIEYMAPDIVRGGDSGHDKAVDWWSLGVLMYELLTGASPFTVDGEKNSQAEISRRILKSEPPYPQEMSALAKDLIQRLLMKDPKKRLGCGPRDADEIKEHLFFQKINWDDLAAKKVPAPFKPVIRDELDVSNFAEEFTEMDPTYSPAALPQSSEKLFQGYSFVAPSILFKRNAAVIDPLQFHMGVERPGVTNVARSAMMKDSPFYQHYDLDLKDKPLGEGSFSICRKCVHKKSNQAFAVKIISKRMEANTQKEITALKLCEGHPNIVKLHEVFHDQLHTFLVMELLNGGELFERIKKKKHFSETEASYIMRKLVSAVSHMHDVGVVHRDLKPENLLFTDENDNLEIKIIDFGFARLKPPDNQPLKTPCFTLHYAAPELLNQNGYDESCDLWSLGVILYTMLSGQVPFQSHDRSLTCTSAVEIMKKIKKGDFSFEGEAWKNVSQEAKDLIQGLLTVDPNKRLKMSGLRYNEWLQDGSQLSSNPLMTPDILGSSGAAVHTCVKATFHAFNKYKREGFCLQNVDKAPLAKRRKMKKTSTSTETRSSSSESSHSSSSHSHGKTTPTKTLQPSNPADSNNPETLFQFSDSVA
# Chain of UniProt P08631 (whole entry, looked up): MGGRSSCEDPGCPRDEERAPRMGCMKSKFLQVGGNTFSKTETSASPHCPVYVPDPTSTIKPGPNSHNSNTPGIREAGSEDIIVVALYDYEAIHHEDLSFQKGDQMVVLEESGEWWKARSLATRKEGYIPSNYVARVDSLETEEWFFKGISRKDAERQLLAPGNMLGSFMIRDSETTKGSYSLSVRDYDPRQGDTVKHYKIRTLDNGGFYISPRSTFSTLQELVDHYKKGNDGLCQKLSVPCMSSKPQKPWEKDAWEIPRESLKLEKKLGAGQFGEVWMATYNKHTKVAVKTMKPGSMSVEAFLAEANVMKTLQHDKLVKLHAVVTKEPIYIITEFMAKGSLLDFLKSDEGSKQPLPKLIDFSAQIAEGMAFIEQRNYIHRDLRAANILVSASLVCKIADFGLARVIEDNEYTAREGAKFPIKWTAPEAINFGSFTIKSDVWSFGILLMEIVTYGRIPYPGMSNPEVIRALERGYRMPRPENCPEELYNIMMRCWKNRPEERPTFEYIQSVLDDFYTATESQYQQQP
# Chain of UniProt O14730 (whole entry, looked up): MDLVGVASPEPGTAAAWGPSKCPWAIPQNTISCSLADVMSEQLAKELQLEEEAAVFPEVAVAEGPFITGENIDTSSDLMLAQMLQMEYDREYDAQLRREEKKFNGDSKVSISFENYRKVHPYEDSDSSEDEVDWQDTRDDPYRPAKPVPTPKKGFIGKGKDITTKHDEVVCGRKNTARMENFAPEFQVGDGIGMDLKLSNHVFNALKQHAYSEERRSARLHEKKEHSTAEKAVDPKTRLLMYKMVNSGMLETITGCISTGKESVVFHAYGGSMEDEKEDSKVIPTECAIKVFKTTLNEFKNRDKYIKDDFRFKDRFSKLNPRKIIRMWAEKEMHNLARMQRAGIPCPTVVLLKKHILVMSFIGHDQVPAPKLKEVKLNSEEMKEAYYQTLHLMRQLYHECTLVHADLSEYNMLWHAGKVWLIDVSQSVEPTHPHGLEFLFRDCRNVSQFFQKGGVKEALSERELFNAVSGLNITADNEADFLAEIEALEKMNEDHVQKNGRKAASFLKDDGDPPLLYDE
# Chain of UniProt P35462 (whole entry, looked up): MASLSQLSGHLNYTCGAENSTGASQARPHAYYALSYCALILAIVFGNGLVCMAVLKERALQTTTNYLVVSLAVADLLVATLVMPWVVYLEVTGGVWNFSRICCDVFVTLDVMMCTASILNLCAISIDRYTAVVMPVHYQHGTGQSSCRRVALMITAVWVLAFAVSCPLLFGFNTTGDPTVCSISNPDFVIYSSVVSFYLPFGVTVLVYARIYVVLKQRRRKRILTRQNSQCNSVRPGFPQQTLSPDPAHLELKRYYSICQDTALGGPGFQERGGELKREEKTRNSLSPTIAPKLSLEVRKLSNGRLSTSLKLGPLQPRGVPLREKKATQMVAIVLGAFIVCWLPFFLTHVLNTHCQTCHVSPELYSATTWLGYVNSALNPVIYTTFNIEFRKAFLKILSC
# Chain of UniProt Q8IYT8 (whole entry, looked up): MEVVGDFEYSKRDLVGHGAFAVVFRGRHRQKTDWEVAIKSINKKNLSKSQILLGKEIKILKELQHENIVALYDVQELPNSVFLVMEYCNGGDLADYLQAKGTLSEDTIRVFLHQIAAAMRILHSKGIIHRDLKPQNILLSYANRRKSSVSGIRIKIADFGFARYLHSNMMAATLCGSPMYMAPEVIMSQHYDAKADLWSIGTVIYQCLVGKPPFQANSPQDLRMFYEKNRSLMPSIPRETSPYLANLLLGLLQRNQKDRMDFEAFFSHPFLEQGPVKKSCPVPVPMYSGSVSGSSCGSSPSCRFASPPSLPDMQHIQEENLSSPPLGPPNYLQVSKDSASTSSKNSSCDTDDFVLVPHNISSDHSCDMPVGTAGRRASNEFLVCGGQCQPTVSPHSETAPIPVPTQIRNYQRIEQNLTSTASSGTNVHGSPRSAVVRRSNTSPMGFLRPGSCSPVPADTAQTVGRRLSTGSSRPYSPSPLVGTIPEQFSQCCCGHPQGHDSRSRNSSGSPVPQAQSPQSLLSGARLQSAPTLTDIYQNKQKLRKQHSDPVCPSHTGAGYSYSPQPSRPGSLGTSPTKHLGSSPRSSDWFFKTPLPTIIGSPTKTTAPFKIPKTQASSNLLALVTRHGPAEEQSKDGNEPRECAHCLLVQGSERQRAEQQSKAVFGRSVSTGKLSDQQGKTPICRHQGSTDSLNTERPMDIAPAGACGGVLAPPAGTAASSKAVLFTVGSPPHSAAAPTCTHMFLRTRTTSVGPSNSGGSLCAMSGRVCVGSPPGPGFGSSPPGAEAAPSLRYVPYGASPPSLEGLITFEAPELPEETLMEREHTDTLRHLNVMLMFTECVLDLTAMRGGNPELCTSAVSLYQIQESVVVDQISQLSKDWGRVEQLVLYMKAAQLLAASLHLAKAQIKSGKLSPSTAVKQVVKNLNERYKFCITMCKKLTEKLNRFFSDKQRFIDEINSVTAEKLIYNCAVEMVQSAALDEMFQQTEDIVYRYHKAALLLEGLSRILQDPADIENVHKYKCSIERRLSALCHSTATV
# Chain of UniProt P49761 (whole entry, looked up): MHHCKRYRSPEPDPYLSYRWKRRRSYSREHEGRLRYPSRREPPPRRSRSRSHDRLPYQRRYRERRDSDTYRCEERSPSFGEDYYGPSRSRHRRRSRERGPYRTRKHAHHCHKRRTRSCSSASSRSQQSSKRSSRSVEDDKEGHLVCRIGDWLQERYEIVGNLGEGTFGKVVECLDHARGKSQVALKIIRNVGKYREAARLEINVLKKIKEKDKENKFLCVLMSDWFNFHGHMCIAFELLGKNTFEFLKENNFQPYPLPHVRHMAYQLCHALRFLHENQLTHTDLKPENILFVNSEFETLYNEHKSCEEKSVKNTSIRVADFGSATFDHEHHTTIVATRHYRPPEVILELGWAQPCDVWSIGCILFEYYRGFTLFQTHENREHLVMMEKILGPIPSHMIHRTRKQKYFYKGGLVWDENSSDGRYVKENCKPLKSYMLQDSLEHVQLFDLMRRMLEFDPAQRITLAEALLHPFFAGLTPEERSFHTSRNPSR
# Chain of UniProt Q15831 (whole entry, looked up): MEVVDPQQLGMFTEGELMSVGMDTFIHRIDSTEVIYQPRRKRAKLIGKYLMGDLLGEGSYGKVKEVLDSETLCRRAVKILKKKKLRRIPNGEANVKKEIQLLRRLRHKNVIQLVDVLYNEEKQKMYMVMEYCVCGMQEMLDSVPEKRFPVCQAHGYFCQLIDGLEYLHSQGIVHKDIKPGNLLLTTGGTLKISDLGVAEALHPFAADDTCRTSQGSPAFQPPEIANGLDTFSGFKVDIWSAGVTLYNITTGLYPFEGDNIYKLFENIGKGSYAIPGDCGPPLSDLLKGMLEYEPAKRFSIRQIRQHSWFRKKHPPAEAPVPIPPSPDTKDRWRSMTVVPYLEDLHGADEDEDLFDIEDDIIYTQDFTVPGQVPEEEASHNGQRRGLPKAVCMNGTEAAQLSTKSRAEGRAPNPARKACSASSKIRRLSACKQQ
# Chain of UniProt P61075 (whole entry, looked up): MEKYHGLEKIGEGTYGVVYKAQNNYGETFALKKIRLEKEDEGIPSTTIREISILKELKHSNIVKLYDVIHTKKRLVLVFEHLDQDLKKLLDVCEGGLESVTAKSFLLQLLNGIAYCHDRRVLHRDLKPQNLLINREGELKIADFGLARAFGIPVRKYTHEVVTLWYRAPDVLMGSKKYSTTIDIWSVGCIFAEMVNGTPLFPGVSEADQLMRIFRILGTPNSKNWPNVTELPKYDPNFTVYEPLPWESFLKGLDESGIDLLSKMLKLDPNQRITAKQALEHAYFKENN
# Chain of UniProt P15735 (whole entry, looked up): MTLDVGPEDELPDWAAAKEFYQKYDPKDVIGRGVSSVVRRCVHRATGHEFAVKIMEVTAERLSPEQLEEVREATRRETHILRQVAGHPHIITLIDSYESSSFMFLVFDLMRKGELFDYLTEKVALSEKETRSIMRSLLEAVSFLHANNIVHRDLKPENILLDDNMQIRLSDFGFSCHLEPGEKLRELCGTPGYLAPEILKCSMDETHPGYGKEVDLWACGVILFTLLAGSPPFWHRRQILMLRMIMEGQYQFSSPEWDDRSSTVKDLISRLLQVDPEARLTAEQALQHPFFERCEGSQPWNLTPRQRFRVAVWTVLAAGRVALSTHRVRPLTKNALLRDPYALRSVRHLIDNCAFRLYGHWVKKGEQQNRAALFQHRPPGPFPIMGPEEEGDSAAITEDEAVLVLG
Structure (SMILES),tested on,observed,action,method,concentration,measurement,result
CNS(=O)(=O)c1ccc(Nc2ncc(C(F)(F)F)c(N3CCC[C@](C)(O)C3)n2)c(C)c1,CDK2,binding,,competition with immobilised ligand,1 µM,remaining binding,5.3%
F[C@@H]1CCN(c2nccc(-c3cnn4ncccc34)n2)C1,"Cyclin-dependent kinase 2 homolog (CRK2, Plasmodium falciparum, UniProt P61075)",binding,,,1 µM,remaining binding,100%
FC(F)(F)Oc1cccc(-c2cnc3ccc(-c4ccncc4)nn23)c1,"Ribosomal protein S6 kinase alpha-5, C-terminal kinase domain (RPS6KA5, Homo sapiens, UniProt O75582)",binding,,competition with immobilised ligand,5 µM,remaining binding,76%
CN(C)c1nccc(-c2cnc3ncccn23)n1,"Serine/threonine-protein kinase RIO3 (RIOK3, Homo sapiens, UniProt O14730)",binding,,,1 µM,remaining binding,100%
C1=C/COCc2cc(ccc2OCCN2CCCC2)Nc2nccc(n2)-c2cccc(c2)COC/1,"Serine/threonine-protein kinase PAK 6 (PAK6, Homo sapiens, UniProt Q9NQU5)",binding,,,0.1 µM,remaining binding,90%
Cc1noc(NS(=O)(=O)c2ccc(N=NN(C)O)cc2)c1C,,ABTS scavenging,,,20 µg/mL,inhibition,23.2%
COc1cc(-c2cncc3c2CN(C)Cc2cc(N4CCNCC4)ccc2-3)cc(OC)c1OC,"Tyrosine-protein kinase HCK (HCK, Homo sapiens, UniProt P08631)",enzyme activity,inhibitor,,1 µM,remaining activity,102%
Cc1cc([C@@H](C)Nc2ccccc2C(=O)O)c2nc(N3CCC(F)(F)CC3)c(C#N)c(=O)n2c1,"Serine/threonine-protein kinase ULK2 (ULK2, Homo sapiens, UniProt Q8IYT8)",binding,,competition with immobilised ligand,10 µM,remaining binding,55%
CNc1ncc2c(/C=C/C(=O)N3CCC(OC)CC3)nn(Cc3cccc(C(F)(F)F)c3)c2n1,"Dual specificity protein kinase CLK3 (CLK3, Homo sapiens, UniProt P49761)",enzyme activity,inhibitor,radiometric,1 µM,remaining activity,105%
Cc1[nH]c(C)c(S(=O)(=O)Nc2ccc(C(F)(F)F)c(Cl)c2)c1C(=O)N1CC(F)(F)C(F)(F)C1,"D(3) dopamine receptor (DRD3, Homo sapiens, UniProt P35462)",G protein activation,antagonist,BRET,,IC50,7.1 µM
Cc1cc(NS(=O)(=O)c2ccc(N=NN(O)c3ccccc3)cc2)no1,,ABTS scavenging,,,20 µg/mL,inhibition,14.8%
C=CC(=O)N1CCC(COCC(=O)N2CCN(c3nc(-c4cnc(N)nc4C(F)F)nc(N4CCOC[C@@H]4C)n3)CC2)CC1,"Serine/threonine-protein kinase STK11 (STK11, Homo sapiens, UniProt Q15831)",binding,,competition with immobilised ligand,1 µM,remaining binding,77%
C[C@]1(O)CCCN(c2nc(Nc3ccc(S(=O)(=O)N[C@H]4CC[C@H](CN5CCN(c6ccc(C7CCC(=O)NC7=O)cc6F)CC5)CC4)cc3F)ncc2C(F)(F)F)C1 (stereo partly drawn),CDK2,binding,,competition with immobilised ligand,1 µM,remaining binding,33%
COc1ccc2oc(-c3ccc4nc(N)oc4c3)c/c(=N\c3ccccc3NC(=O)CCN)c2c1,"Epithelial discoidin domain-containing receptor 1 (DDR1, Homo sapiens, UniProt Q08345)",binding,,,1 µM,remaining binding,75%
CCCCC(=O)Nc1ccc(-c2ccc3ncn(CCC)c(=O)c3c2)cn1,"Phosphorylase b kinase gamma catalytic chain, liver/testis isoform (PHKG2, Homo sapiens, UniProt P15735)",binding,,competition with immobilised ligand,0.5 µM,remaining binding,100%

# Repeated from above:
Structure (SMILES),tested on,observed,action,method,concentration,measurement,result
CNS(=O)(=O)c1ccc(Nc2ncc(C(F)(F)F)c(N3CCC[C@](C)(O)C3)n2)c(C)c1,CDK2,binding,,competition with immobilised ligand,1 µM,remaining binding,5.3%
